Results pooled from the literature.
Protocols differ between the studies behind these lines. ± gives the spread as reported.
CHRM3: Muscarinic acetylcholine receptor M3 (CHRM3, Homo sapiens, UniProt P20309)
Sequence of UniProt P20309 (whole entry, looked up): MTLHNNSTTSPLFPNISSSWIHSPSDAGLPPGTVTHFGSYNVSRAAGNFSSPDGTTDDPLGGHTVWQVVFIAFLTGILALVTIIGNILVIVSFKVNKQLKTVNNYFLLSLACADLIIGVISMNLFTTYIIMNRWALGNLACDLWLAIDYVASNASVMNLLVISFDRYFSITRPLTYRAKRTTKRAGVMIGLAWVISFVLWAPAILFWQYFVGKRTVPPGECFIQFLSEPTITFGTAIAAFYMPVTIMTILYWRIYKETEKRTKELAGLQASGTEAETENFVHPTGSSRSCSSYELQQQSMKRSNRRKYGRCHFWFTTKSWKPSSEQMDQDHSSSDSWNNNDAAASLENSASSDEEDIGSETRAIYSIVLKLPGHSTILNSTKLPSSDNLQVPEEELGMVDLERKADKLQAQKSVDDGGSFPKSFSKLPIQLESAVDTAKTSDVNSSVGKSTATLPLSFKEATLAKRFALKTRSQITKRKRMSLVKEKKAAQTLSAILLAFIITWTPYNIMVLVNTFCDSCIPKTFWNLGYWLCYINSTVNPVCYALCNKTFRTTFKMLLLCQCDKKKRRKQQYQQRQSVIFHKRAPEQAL
CASP3: Caspase-3 (CASP3, Homo sapiens, UniProt P42574)
Sequence of UniProt P42574 (whole entry, looked up): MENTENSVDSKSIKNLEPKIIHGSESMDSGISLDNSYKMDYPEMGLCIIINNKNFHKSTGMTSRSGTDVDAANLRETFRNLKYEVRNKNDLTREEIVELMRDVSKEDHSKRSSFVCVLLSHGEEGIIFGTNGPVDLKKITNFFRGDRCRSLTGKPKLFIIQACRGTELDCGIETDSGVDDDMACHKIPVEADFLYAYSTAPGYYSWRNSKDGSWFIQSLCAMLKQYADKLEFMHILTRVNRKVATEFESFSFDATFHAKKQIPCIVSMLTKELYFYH
SLC10A2: Ileal sodium/bile acid cotransporter (SLC10A2, Homo sapiens, UniProt Q12908)
Sequence of UniProt Q12908 (whole entry, looked up): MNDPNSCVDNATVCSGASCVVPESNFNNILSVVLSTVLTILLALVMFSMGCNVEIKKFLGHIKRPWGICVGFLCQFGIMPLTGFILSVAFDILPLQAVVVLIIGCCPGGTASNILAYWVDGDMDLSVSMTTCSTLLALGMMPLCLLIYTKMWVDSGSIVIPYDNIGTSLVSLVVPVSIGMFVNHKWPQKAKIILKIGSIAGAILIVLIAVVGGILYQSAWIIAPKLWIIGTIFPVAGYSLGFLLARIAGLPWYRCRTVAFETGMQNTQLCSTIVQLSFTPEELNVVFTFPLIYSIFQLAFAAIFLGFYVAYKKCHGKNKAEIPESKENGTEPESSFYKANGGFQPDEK
Drd2: D(2) dopamine receptor (Drd2, Rattus norvegicus, UniProt P61169)
Sequence of UniProt P61169 (whole entry, looked up): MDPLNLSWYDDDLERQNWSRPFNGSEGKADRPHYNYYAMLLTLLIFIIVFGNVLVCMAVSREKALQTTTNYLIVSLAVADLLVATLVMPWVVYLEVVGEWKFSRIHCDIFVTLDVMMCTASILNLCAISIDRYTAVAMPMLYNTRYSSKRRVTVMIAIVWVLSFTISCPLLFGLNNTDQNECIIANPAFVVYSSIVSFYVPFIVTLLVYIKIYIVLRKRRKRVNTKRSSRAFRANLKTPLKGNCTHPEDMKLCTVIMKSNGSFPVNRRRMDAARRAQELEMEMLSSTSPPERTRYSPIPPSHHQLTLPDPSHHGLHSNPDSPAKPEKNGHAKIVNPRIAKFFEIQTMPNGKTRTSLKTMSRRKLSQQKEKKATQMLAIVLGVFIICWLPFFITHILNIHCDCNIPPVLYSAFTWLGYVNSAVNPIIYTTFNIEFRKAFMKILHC
CHRM1: Muscarinic acetylcholine receptor M1 (CHRM1, Homo sapiens, UniProt P11229)
Sequence of UniProt P11229 (whole entry, looked up): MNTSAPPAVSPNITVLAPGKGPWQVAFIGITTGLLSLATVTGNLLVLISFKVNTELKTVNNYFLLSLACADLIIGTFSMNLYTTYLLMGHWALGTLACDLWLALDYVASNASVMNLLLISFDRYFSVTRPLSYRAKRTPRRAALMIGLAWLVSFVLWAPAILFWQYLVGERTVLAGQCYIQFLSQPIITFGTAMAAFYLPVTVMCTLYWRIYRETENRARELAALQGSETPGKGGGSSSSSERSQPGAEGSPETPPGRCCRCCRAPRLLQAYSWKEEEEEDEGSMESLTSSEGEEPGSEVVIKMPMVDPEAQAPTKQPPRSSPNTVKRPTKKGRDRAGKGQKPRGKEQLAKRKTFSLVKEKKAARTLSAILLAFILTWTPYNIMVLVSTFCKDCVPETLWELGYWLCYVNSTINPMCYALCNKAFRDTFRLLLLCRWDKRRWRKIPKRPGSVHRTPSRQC
MAOB: Amine oxidase [flavin-containing] B (MAOB, Homo sapiens, UniProt P27338)
Sequence of UniProt P27338 (whole entry, looked up): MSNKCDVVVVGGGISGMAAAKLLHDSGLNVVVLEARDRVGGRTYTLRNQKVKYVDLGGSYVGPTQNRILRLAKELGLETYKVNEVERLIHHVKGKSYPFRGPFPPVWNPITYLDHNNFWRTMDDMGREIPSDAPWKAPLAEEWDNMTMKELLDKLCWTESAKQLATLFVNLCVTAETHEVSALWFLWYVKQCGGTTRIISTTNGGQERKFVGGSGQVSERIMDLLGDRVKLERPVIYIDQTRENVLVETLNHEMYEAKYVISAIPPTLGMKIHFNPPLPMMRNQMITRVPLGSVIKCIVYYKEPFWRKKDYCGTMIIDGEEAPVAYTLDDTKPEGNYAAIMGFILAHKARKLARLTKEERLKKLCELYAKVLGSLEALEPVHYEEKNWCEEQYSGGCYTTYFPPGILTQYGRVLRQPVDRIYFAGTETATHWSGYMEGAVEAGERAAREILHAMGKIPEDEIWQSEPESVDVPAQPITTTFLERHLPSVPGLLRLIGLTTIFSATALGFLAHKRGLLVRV
Hypoxanthine-guanine phosphoribosyltransferase: Hypoxanthine-guanine phosphoribosyltransferase (Trypanosoma cruzi, UniProt Q4DGA3)
Sigmar1: Sigma non-opioid intracellular receptor 1 (Sigmar1, Rattus norvegicus, UniProt Q9R0C9)
Sequence of UniProt Q9R0C9 (whole entry, looked up): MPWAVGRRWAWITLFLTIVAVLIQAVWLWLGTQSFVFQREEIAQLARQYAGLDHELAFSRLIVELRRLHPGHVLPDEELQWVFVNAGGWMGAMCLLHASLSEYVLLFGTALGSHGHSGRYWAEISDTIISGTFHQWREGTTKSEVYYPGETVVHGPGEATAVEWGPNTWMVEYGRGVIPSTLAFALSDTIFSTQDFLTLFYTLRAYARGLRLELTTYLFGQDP
CHRM5: Muscarinic acetylcholine receptor M5 (CHRM5, Homo sapiens, UniProt P08912)
Sequence of UniProt P08912 (whole entry, looked up): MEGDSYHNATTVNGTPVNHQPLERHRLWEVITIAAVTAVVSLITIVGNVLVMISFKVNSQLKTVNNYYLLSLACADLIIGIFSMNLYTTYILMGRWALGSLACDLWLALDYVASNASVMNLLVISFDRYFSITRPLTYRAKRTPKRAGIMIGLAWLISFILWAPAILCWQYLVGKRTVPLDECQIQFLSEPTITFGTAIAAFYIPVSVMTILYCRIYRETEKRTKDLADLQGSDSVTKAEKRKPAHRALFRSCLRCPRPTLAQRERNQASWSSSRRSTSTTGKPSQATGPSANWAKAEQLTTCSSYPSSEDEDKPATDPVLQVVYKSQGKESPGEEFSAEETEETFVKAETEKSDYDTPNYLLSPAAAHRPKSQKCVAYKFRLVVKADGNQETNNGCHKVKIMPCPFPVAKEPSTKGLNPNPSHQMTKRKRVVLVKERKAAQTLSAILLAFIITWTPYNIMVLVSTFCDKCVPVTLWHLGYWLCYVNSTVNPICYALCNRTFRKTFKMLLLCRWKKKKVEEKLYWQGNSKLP
Sequence of UniProt Q27793 (whole entry, looked up): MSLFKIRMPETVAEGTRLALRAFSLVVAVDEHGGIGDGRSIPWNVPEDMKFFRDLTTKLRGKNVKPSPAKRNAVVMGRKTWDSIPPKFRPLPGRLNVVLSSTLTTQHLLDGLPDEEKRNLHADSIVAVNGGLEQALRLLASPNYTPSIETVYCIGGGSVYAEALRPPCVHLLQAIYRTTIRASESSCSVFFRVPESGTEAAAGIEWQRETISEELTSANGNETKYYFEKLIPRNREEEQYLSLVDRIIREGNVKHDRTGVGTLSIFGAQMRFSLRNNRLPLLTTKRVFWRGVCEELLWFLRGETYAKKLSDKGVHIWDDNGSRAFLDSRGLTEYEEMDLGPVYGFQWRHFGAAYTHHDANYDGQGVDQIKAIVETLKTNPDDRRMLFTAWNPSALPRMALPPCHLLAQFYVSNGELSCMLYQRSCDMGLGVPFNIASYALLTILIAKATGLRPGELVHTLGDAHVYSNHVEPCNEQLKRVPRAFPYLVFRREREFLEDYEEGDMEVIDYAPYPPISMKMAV
Sequence of UniProt Q9H227 (whole entry, looked up): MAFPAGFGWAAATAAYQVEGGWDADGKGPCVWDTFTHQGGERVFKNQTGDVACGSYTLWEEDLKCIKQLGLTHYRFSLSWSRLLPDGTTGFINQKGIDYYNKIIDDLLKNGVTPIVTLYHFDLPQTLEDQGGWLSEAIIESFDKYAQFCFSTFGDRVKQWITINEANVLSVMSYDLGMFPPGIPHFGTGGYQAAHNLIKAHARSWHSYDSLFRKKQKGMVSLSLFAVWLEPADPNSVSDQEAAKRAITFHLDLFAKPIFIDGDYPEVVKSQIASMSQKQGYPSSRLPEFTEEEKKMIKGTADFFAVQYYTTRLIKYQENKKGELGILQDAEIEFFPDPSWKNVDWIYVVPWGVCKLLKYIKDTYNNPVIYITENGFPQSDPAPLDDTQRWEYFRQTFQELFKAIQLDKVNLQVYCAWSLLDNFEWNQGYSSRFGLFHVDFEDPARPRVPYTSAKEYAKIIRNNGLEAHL
Sequence of UniProt P18031 (whole entry, looked up): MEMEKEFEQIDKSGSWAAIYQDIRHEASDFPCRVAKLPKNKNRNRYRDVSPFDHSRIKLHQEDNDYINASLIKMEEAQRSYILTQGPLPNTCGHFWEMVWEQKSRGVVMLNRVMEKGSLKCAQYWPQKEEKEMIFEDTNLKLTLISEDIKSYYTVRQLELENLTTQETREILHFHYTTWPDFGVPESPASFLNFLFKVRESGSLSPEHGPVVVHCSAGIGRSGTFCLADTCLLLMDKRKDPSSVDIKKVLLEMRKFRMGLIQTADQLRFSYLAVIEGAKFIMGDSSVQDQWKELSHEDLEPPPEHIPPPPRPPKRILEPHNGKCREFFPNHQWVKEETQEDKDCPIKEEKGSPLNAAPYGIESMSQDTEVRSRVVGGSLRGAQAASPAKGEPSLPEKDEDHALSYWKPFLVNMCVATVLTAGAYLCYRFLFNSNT

C=C1C(=O)O[C@@H]2[C@H]3C(CO)=CC(=O)C3=C(C)C[C@H](O)[C@@H]12 — Ki (Alpha-glucosidase MAL12 (MAL12, Saccharomyces cerevisiae S288c, UniProt P53341); enzyme activity, inhibitor): 87600 nM
CN1CCC=C(c2nsnc2OCCCN2CCN(CCCCC3CCN(CC(=O)N4c5ccccc5NC(=O)c5ccccc54)CC3)CC2)C1 — Ki (CHRM3; ligand displacement, radioligand): 13.2 nM
COc1cc(-c2ccnc3nc(Nc4ccc(S(N)(=O)=O)cc4)nn23)cc(OC)c1OC — Ki (Carbonic anhydrase 4 (CA4, Homo sapiens, UniProt P22748); enzyme activity, inhibitor, stopped-flow): 1600 nM
O=c1ccn([C@H]2C[C@H](O)[C@@H](CCP(=O)(O)OP(=O)(O)OP(=O)(O)O)O2)c(=O)[nH]1 — Ki (Deoxynucleoside triphosphate triphosphohydrolase SAMHD1 (SAMHD1, Homo sapiens, UniProt Q9Y3Z3); inhibitor): 80000 ± 6000 nM
CC(=O)N[C@@H](CC(=O)O)C(=O)N[C@@H](CCCNC(=N)N)C(=O)N[C@@H](C)C(=O)N[C@H](C=O)CC(=O)O — Ki (CASP3; enzyme activity, inhibitor, fluorescence; pH 7): 214 nM
CC1(C)C=Cc2c(cc(O)c3c(=O)cc(-c4ccc(O)cc4O)oc23)O1 — Ki (Tyrosine-protein phosphatase non-receptor type 1 (PTPN1, Homo sapiens, UniProt P18031); Dixon plot): 580 nM
O=C(CCCCc1ccc(OP(=O)(O)O)c(OP(=O)(O)O)c1)N1CCCCC1 — Ki (Signal transducer and activator of transcription 5A, SH2 (Homo sapiens, UniProt P42229); ligand displacement, FP): 21000 nM
CC(C)=CCC/C(C)=C/CC/C(C)=C(\F)COP(=O)(O)OP(=O)(O)O — Ki (SC1 (Streptomyces citricolor, UniProt G5EKM9); inhibitor, radioligand inhibition; added: [3H]FDP): 1100 ± 560 nM
CNC(=O)C1CCN(c2cc(C)c(F)cc2NC(=O)c2ccc(-c3cc(O)ccc3C)c(C)c2)CC1 — Ki (Tyrosine-protein kinase TXK (TXK, Homo sapiens, UniProt P42681); cell-free assay, TR-FRET): 17.8 nM
COc1cc(I)c(Cc2cc(OC)c(OC)cc2CC(=O)OC(C)(C)C)cc1OC — Ki (Melatonin receptor type 1A (MTNR1A, Homo sapiens, UniProt P48039); ligand displacement, radioligand; cell membranes): 537 nM
CC1(C)NC(N)=Nc2nc3cc(Cl)c(Cl)cc3n21 — Ki (Bifunctional dihydrofolate reductase-thymidylate synthase, DHFR domain (Trypanosoma cruzi, UniProt Q27793); enzyme activity, competitive inhibitor; added: dihydrofolate 60 µM, NADPH 100 µM): 1070 nM
O=Cc1ccc(-c2cn([C@@H]3O[C@H](COP(=O)(O)OP(=O)(O)O[C@H]4O[C@H](CO)[C@H](O)[C@H](O)[C@H]4O)[C@@H](O)[C@H]3O)c(=O)[nH]c2=O)s1 — Ki (Histo-blood group ABO system transferase (ABO, Homo sapiens, UniProt P16442, G268A/L266G); N-acetylgalactosaminyltransferase activity, inhibitor, radiochemical; added: 2 µM UDP-GalNAc donor, 100 µM acceptor): 520 nM
Cc1ccc(NC(=O)CC[C@H](NC(=O)CC[C@@H](C)[C@H]2CC[C@H]3[C@@H]4[C@H](O)C[C@@H]5C[C@H](O)CC[C@]5(C)[C@H]4CC[C@]23C)C(=O)OCc2ccccc2)c(C)n1 — Ki (SLC10A2; taurocholate uptake, inhibitor; ASBT-MDCK; 10 min, added: taurocholate 2.5 µM): 28100 nM
c1cc(N2CCN(CCCOc3ccc(CN4CCCCC4)cc3)CC2)c2ccsc2c1 — Ki (Drd2; cell-free assay, radioligand): 138 nM
CC(=O)N[C@H](C(=O)NCC(=O)N[C@@H](CCCCN)C(=O)N[C@H](C=O)CC(=O)O)[C@@H](C)O — Ki (CASP3; enzyme activity, inhibitor, fluorescence; pH 7): 3390 nM
NCc1cc(C(=O)NCCN2CCN(CCCCC3CCN(CC(=O)N4c5ccccc5NC(=O)c5ccccc54)CC3)CC2)cc(C(=O)NCCN2CCN(CCCCC3CCN(CC(=O)N4c5ccccc5NC(=O)c5ccccc54)CC3)CC2)c1 — Ki (CHRM1; ligand displacement, radioligand): 2.04 nM
Cc1cc(O)c2c(c1)C(=O)c1cc(O)c(O)c(O)c1C2=O — Ki (MAOB; enzyme activity, inhibitor): 2410 nM
Nc1nc(O)c2[nH]cc(CN[C@H](CO)CCP(=O)(O)O)c2n1 — Ki (Hypoxanthine-guanine phosphoribosyltransferase): 15 ± 2 nM
C/C(=N\OCCCN1CCOCC1)c1ccc(C(F)(F)F)cc1 — Ki (Sigmar1; binding): 3.11 ± 0.01 nM
C[C@H](CCC(=O)O)[C@H]1CC[C@H]2[C@@H]3[C@H](O)C[C@H]4C[C@H](OC(=O)CCC(=O)O)CC[C@]4(C)[C@H]3CC[C@]12C — Ki (SLC10A2; taurocholate uptake, inhibitor; MDCK expressing SLC10A2): 25000 to 100000 nM
Cc1cc(CN2CCCC2)ccc1OCCCN1CCN(c2cccc3sccc23)CC1 — Ki (Drd2; cell-free assay, radioligand): 94.1 nM
CCC(=O)NCc1cc(C(=O)NCCN2CCN(CCCCC3CCN(CC(=O)N4c5ccccc5NC(=O)c5ccccc54)CC3)CC2)cc(C(=O)NCCN2CCN(CCOC(=O)C3c4ccccc4Oc4ccccc43)CC2)c1 — Ki (CHRM1; ligand displacement, radioligand): 3.09 nM
COc1ccc(-c2nc(CSc3nc(N)c(C#N)c(-c4ccc5c(c4)OCO5)c3C#N)cs2)cc1 — Ki (Adenosine receptor A1 (ADORA1, Homo sapiens, UniProt P30542); ligand displacement, radioligand; cell membranes): 1.6 nM
C/C(=N\OCCCN1CCCCC1)c1cccc(C(F)(F)F)c1 — Ki (Sigmar1; binding): 67.6 ± 6.23 nM
CN1CC(=O)N[C@@H](CCCNC(=N)N)C(=O)NCC(=O)N[C@@H](CS)C(=O)NCC(=O)N[C@@H](CC(N)=O)C1=O — Ki (Aminopeptidase N (ANPEP, Homo sapiens, UniProt P15144); enzyme activity, inhibitor): 8900 nM
CC(=O)N[C@@H](CC(=O)O)C(=O)N[C@H](C(=O)N1CCC[C@H]1C(=O)N[C@H](C=O)CC(=O)O)C(C)C — Ki (CASP3; enzyme activity, inhibitor, fluorescence; pH 7): 6.61 nM
CCC(=O)NCc1cc(C(=O)NCCN2CCN(CCCCC3CCN(CC(=O)N4c5ccccc5NC(=O)c5ccccc54)CC3)CC2)cc(C(=O)NCCN2CCN(CCCCC3CCN(CC(=O)N4c5ccccc5NC(=O)c5ccccc54)CC3)CC2)c1 — Ki (CHRM1; ligand displacement, radioligand): 2.95 nM
C[C@H](CCC(=O)N[C@@H](CCC(=O)Nc1cncc(Br)c1)C(=O)O)[C@H]1CC[C@H]2[C@@H]3[C@H](O)C[C@@H]4C[C@H](O)CC[C@]4(C)[C@H]3CC[C@]12C — Ki (SLC10A2; taurocholate uptake, inhibitor; ASBT-MDCK; 10 min, added: taurocholate 2.5 µM): 21100 nM
CC(=O)N[C@@H](CC(=O)O)C(=O)N[C@H](C(=O)N[C@@H](CCCNC(=N)N)C(=O)N[C@H](C=O)CC(=O)O)[C@@H](C)O — Ki (CASP3; enzyme activity, inhibitor, fluorescence; pH 7): 81.3 nM
Cc1ccc(NC(=O)CCC(NC(=O)CCC(C)C2CCC3C4C(O)CC5CC(O)CCC5(C)C4CCC23C)C(=O)O)c(C)n1 (stereo not shown) — Ki (SLC10A2; taurocholate uptake, inhibitor; ASBT-MDCK; 10 min, added: taurocholate 2.5 µM): 1910 nM
O=C1Nc2ccccc2N(C(=O)CN2CCC(CCCCN3CCN(CCCCOC(=O)C4c5ccccc5Oc5ccccc54)CC3)CC2)c2ccccc21 — Ki (CHRM3; ligand displacement, radioligand): 97.7 nM
CC(=O)N[C@H](C(=O)N[C@@H](CC(=O)O)C(=O)N[C@H](CCCCN)C(=O)N[C@H](C(=O)N[C@H](C=O)CC(=O)O)C(C)C)C(C)C — Ki (CASP3; enzyme activity, inhibitor, fluorescence; pH 7): 912 nM
CCCCOc1ccc(C(=O)OCC[N+]2(C)CC=CCC2)cc1 (stereo not shown) — Ki (CHRM5; ligand displacement, radioligand; cell membranes): 3390 nM
CCC(=O)NCc1cc(C(=O)NCCN2CCC(OC(=O)C(c3ccccc3)c3ccccc3)CC2)cc(C(=O)NCCN2CCN(CCCCC3CCN(CC(=O)N4c5ccccc5NC(=O)c5ccccc54)CC3)CC2)c1 — Ki (CHRM5; ligand displacement, radioligand): 24 nM
OC[C@H]1O[C@@H](n2cnc3c(Nc4cccc(Br)c4)ncnc32)[C@H](O)[C@@H]1O — Ki (Adenosine receptor A3 (ADORA3, Homo sapiens, UniProt P0DMS8); ligand displacement, radioligand; cell membranes): 78 nM
CCCCCCOc1ccc(C(=O)OCCN2CC=CCC2)cc1 — Ki (CHRM1; ligand displacement, radioligand; cell membranes): 4270 nM
O=C(OC1CCN(CCOCCOCCN2CCC(OC(=O)C(c3ccccc3)c3ccccc3)CC2)CC1)C(c1ccccc1)c1ccccc1 — Ki (CHRM1; ligand displacement, radioligand): 257 nM
CC(=O)N[C@H](C(=O)N[C@@H](CC(=O)O)C(=O)N[C@H](C(=O)N[C@H](CCCCN)C(=O)N[C@H](C=O)CC(=O)O)C(C)C)C(C)C — Ki (CASP3; enzyme activity, inhibitor, fluorescence; pH 7): > 100000 nM
COc1ccc(CCCN[C@H]2CCC[C@@H]2CN[C@H]2CCC[C@@H]2CNCCCCN[C@H]2CCC[C@@H]2CN)cc1 — Ki (MAOB; enzyme activity, inhibitor): > 500000 nM
CN1CCC=C(c2nsnc2OCCCCCNC(=O)CCCNC(=O)c2cc(CN)cc(C(=O)NCCN3CCN(CCCCC4CCN(CC(=O)N5c6ccccc6NC(=O)c6ccccc65)CC4)CC3)c2)C1 — Ki (CHRM3; ligand displacement, radioligand): 17.4 nM
OC[C@H]1[C@@H](O)[C@H](O)[C@@H](O)CN1CCCCCOCc1ccc(-c2ccccc2)cc1 — Ki (Cytosolic beta-glucosidase (GBA3, Homo sapiens, UniProt Q9H227); enzyme activity, inhibitor): 27800 nM
CC(=O)N[C@H](C(=O)N[C@@H](CC(=O)O)C(=O)N[C@H](CCN)C(=O)N[C@@H](C)C(=O)N[C@H](C=O)CC(=O)O)C(C)C — Ki (CASP3; enzyme activity, inhibitor, fluorescence; pH 7): 19500 nM
Nc1nc2c([C@@H]3N[C@H](COP(=O)(O)O)[C@@H](O)[C@H]3O)c[nH]c2c(=O)[nH]1 — Ki (Hypoxanthine-guanine phosphoribosyltransferase): 1160 ± 390 nM

Excerpt of the above:
CC(=O)N[C@H](C(=O)N[C@@H](CC(=O)O)C(=O)N[C@H](CCCCN)C(=O)N[C@H](C(=O)N[C@H](C=O)CC(=O)O)C(C)C)C(C)C — Ki (CASP3; enzyme activity, inhibitor, fluorescence; pH 7): 912 nM
NCc1cc(C(=O)NCCN2CCN(CCCCC3CCN(CC(=O)N4c5ccccc5NC(=O)c5ccccc54)CC3)CC2)cc(C(=O)NCCN2CCN(CCCCC3CCN(CC(=O)N4c5ccccc5NC(=O)c5ccccc54)CC3)CC2)c1 — Ki (CHRM1; ligand displacement, radioligand): 2.04 nM
O=C1Nc2ccccc2N(C(=O)CN2CCC(CCCCN3CCN(CCCCOC(=O)C4c5ccccc5Oc5ccccc54)CC3)CC2)c2ccccc21 — Ki (CHRM3; ligand displacement, radioligand): 97.7 nM
COc1cc(I)c(Cc2cc(OC)c(OC)cc2CC(=O)OC(C)(C)C)cc1OC — Ki (Melatonin receptor type 1A (MTNR1A, Homo sapiens, UniProt P48039); ligand displacement, radioligand; cell membranes): 537 nM
O=Cc1ccc(-c2cn([C@@H]3O[C@H](COP(=O)(O)OP(=O)(O)O[C@H]4O[C@H](CO)[C@H](O)[C@H](O)[C@H]4O)[C@@H](O)[C@H]3O)c(=O)[nH]c2=O)s1 — Ki (Histo-blood group ABO system transferase (ABO, Homo sapiens, UniProt P16442, G268A/L266G); N-acetylgalactosaminyltransferase activity, inhibitor, radiochemical; added: 2 µM UDP-GalNAc donor, 100 µM acceptor): 520 nM
